Results of several laboratories.
A part holds a random share of what one study measured. Substitutions count along the parent as printed.
Chain of UniProt P38919 (whole entry, looked up): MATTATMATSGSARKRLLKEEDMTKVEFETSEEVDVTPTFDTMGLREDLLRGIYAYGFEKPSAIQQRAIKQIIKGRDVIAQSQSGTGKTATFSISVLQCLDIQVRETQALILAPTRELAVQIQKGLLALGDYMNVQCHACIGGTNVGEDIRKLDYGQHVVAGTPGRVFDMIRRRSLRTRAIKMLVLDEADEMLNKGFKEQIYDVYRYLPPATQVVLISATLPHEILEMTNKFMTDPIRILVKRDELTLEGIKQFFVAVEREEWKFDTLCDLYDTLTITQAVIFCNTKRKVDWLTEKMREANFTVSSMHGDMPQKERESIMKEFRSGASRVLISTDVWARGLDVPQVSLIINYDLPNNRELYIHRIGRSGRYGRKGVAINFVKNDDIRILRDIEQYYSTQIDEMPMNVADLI

Set 1
Target: UDP-N-acetylglucosamine--peptide N-acetylglucosaminyltransferase 110 kDa subunit (OGT, Homo sapiens, UniProt O15294)
Chain of UniProt O15294 (whole entry, looked up): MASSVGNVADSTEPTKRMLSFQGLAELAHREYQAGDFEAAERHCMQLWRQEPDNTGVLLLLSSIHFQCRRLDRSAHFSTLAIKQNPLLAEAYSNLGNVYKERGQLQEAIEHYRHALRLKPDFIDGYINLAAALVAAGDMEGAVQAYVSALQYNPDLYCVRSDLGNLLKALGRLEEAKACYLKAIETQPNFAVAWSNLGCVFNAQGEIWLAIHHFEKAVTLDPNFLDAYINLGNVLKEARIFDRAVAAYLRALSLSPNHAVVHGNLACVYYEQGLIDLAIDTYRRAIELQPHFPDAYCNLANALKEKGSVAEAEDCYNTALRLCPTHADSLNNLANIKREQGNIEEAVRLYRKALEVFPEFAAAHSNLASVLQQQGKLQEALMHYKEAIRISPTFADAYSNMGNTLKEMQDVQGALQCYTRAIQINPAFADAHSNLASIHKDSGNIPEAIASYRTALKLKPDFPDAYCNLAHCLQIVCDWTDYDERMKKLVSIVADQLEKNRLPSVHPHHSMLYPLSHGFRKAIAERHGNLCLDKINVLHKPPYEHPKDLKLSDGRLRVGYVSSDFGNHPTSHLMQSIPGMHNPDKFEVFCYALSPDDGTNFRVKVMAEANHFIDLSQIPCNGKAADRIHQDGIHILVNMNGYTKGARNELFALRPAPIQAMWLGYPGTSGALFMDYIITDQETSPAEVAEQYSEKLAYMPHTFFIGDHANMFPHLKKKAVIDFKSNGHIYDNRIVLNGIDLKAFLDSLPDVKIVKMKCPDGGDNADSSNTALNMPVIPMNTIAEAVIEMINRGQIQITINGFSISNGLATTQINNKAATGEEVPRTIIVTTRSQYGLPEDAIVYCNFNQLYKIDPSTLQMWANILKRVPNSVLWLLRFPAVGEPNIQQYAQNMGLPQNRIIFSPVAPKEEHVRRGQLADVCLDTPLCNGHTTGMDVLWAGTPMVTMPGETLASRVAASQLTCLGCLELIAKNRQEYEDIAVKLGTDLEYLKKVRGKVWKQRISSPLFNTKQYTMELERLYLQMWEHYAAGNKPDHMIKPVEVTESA
Read-out: binding
Method: phage display NGS
Form: peptide
Setting: panning round 2
Reference: input library
Molecule | minimum log2 enrichment ratio
GGNEEFKPFYQIFMP | 2.41
SPHMNNHHHAVMGEH | 2.99
QMHHHVIMGHHIGHT | 2.25
DEHMIPNHHHHFTIE | 2.54
HNRHMHQHSHYMADT | 2.61
DPRHHTHYPIHTMGY | 2.65
YPHHDGHSHSYEPFH | 2.08
QPYQHNFYHWHAQPS | 2.41

Set 2
Target: inorganic phosphate, free oxyanion
Method: microfluidic competitive inhibition
Matrix: in vitro, cell-free expressed
Tested at: not given
Setting: derived from inhibition constants, unchanged parent 615000 nM
Reading: lower = stronger binding
Starting sequence: PafA, mature enzyme, eGFP fusion (Elizabethkingia meningoseptica, UniProt Q9KJX5); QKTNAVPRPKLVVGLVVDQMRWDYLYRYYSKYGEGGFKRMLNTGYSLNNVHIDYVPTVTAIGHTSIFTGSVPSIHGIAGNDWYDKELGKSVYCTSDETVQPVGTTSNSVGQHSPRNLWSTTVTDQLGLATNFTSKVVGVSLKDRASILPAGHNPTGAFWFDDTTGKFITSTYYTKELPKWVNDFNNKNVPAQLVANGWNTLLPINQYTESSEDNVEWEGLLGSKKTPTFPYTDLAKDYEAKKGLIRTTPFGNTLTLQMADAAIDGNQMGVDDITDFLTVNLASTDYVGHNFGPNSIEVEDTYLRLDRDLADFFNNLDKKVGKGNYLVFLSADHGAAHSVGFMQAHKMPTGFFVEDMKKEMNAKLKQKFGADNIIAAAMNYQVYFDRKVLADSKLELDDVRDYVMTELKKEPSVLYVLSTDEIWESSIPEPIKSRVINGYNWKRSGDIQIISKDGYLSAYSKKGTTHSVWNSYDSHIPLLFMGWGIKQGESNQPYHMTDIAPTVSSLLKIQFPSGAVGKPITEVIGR
Variant | phosphate dissociation constant [µM]
G251V | 413
D355G | 486
N315V | 684
G484V | 640
D81G | 734
Q257V | 638
Q19V | 255
Y238V | 515

Single results of other studies
SMILES | target or system | test | system | conditions | quantity | value
COC(=O)[C@H]1[C@H](c2ccccc2)[C@]2(c3ccc(OC)cc3)Oc3cc(OC)cc(OC)c3[C@@]1(O)C2O (stereo partly drawn) | Eukaryotic initiation factor 4A-III (Homo sapiens, UniProt P38919) | RNA clamping, fluorescence polarization |  | concentration not given, added: FAM-labelled poly r(AG)8 RNA | fluorescence polarization change | -5.4 mP
CCN1C(=O)CNc2ncc(-c3ccc(-c4nc[nH]n4)nc3C)nc21 |  | dsDNA unwinding, PicoGreen fluorescence | annealed dsDNA substrate | 20 µM | effect | 3.99%

Repeated from above (set 2):
Variant | phosphate dissociation constant [µM]
D81G | 734
Q257V | 638
